Results from different studies.
Parts stem from different laboratories: compare values within a part only. Substitutions count along the parent as printed.

Sample 1
Target: Sal-like protein 4, full length isoform B (SALL4, Homo sapiens, UniProt Q9UJQ4-2, residues 1-616)
Method: universal PBM
Molecule type: double-stranded DNA, one strand shown
Matrix: in vitro
Concentration: not given
Setting: 8-mer, flanks averaged, mean of replicates
Direction: higher = stronger binding
Oligonucleotide	E-score
ATGATGCC	0.0397
AATGGACC	0.00732
ACTCATCA	-0.00874
ATCTTAAT	0.231
ATCAATAC	0.269
TCGTGTAA	0.0889
CTAACCGA	-0.153
ACTTTGCT	0.084
AGGCAGAG	-0.0572
AATCAGCG	-0.161
AGGAAGTC	-0.054
ATCACTCC	-0.106
GCGGGACC	-0.252
CAGGAGCC	-0.354
CAGGTCAA	-0.121

Sample 2
Target: Interferon regulatory factor 5, full length, phosphomimetic (IRF5, Homo sapiens, UniProt Q13568-2, residues 1-514, S451D/S453D/S456D/S462D)
Method: protein-binding microarray
Molecule type: double-stranded DNA, one strand shown
Matrix: in vitro
Concentration: 940 nM top
Setting: 60-bp whole probe
Added: salmon DNA 0.4 mg/ml
Baseline: random background probes
Direction: higher = stronger binding
All sequences stand within: GCCTAGCAC … GTCTTGATTCGCTTGACGCTGCTG
Oligonucleotide	fitted relative affinity
GAGGGACTGGGTCTCGGGACGTGCTAG	-0.393 z-score
GAAGGTTTCCTACTGCTGACGTGCTAG	0.375 z-score
ACATTTTTTTCATTATTGTTGTGCTAG	1.57 z-score
GACGGTCTCAGTATCGGGACGTGCTAG	2.43 z-score
TCATCCATGGGTATGGCACTGTGCTAG	-0.242 z-score
CATCTTCTGGATTTTTTAGCGTGCTAG	0.283 z-score
TTAGGTATCGACGATCGGTTAGTGCTA	4.85 z-score
TTAGGTATCGGTATCGTTTAGTGCTAG	10.1 z-score
GACGGTTTCGGGTATCGGGCCGTGCTA	9.37 z-score
TTAGCTTTCGGGACTGGGTTAGTGCTA	1.97 z-score

Sample 3
Target: CCNB1, cyclin fold, Cln2 fusion (human)
Method: yeast growth competition, sequencing
Matrix: yeast
Setting: strong parent motif
Baseline: not given
Direction: higher = stronger binding
Starting sequence: E2F1 docking peptide (human); PPVKRRLDFETDH
Change	normalised enrichment score
PAVKRRLDFETDH [P2A]	4.85
PPVKRRLDHETDH [F9H]	0.185
PPVKRRLDFERDH [T11R]	4.6
PPVPRRLDFETDH [K4P]	2.68
PPVKRRLTFETDH [D8T]	4.57
PPVKRRLDFETEH [D12E]	5.52
PPVKRRLDFQTDH [E10Q]	4.32
PWVKRRLDFETDH [P2W]	3.33
PPVKRRLDMETDH [F9M]	1.17

Single results of other studies
Molecule	target	assay	test system	conditions	how to read	endpoint	value
PhoQ, residues 284 288 289 292 302 303 SSCLAV	PhoP, residues 12 14 15 18 19 IQFRS (Escherichia coli, UniProt P23836)	Sort-seq, refers to: YFP reporter	E. coli	PhoQ-PhoP variant library, added: 10 µM Mg2+	baseline: high Mg2+ state, higher = stronger signaling	fold induction	13.1

A few entries again (sample 3):
Change	normalised enrichment score
PPVKRRLDMETDH [F9M]	1.17
PPVKRRLDFETEH [D12E]	5.52
PPVKRRLDFERDH [T11R]	4.6
